{"data": "Experimental data pooled from the literature", "note": "Every numbered part comes from another study and shows a few of its results, in no order."}
{"data": "Set 1", "target": "RNA binding protein fox-1 homolog 2, RRM domain, GST-SBP tag (RBFOX2, Homo sapiens, UniProt O43251-10, residues 100-194)", "method": "RNA Bind-n-Seq", "molecule type": "RNA", "medium": "in vitro", "concentration": "365 nM", "setting": "natural RNA segment, single round, ends assumed", "relative to": "no-protein control", "reading": "higher = stronger binding", "shared flanks, not repeated": "GGGAGUUCUACAGUCCGACGAUC … UGGAAUUCUCGGGUGCCAA", "Target sequence (chain)": "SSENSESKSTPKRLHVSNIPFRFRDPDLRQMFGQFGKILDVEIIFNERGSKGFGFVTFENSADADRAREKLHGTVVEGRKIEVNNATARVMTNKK"}
{"Sequence": "AAACAAAACAAAAAGAAGAAAAGAUAAAAAGGAAGGCCAUUAUGGUCAGUAGCCCUAACCUCACUAACUGACAUACUCCCAAACCAGGCUUCUUGGGCCAGGUCUGUCCC", "RBNS enrichment (R)": 0.289}
{"Sequence": "UCCACAACCCUGGUGUAAUACAGAGUCCAGCCAUUACCAUUCUCCUGCGUUACUUUGACAUGGGAUUUUUUUUUUUUUUUGUACAUUUUGGCUGCAGUAUUGGUGGUAGA", "RBNS enrichment (R)": 0.496}
{"Sequence": "CAGCCUCCAGCUGCACUGGGAGACGUAGGGAGGGAAGCAGGGUCCACAGCCAUUCCCUCAUGAGAGGUGGCUCUCAUGGCAUCUUGCAAUGUUUGUCUUGUUUUGUUCAU", "RBNS enrichment (R)": 5.82}
{"Sequence": "UCAAUUAUCAGUGGCUUUAUGAAGUAAAGUUAAAAACAAACAUAGGAAAUGUGAAAAUAUUUGUGUUUGUUUUGUCUGACUAACUUGCUGCUAAAUGCUAUCUUUAGGUG", "RBNS enrichment (R)": 0.412}
{"Sequence": "CAUCAGCUACCCCUGCAGCUGGGGAAGACUUAUGCCAUCCCGGCAGCGAGGCUGGGCUGGCCAGCCACCACUGACUAUACCAACUGGGCCUCUGAUGUUCUUCCAGUGAG", "RBNS enrichment (R)": 0.221}
{"Sequence": "GCAAACACUAGAUAUGCAAAACUGGAUUUUUUUAAUUUAUUUUUUAAAAGAGGGAGGUGUGGUAUAUUAAAAUGAUUUUACUAAGAGAAAAAAAAUAUUUUUUUAAGGAU", "RBNS enrichment (R)": 0.612}
{"Sequence": "UUGCAAGGCUGUACAAUGUGCUGAUGCAAGCCUUUUUCAGUUCAAGAGAAUAAAUGUUUACAAAUGUAGACCCACUUUGUCUUUUUUCUAAUUAGAAACAUCCUUAGGGA", "RBNS enrichment (R)": 0.814}
{"Sequence": "GACCAACCCUGCCAAGUCUAAUGGCAGUGGUCUGGGCACCUGAUGUAGUUUGGGGACACUCUGUAUUCCUGUUUUCAUUCUAACAAAGAGGACAGAGCUAUUUUGCUAUG", "RBNS enrichment (R)": 0.275}
{"data": "Set 2", "target": "Sal-like protein 4, full length isoform B (SALL4, Homo sapiens, UniProt Q9UJQ4-2, residues 1-616)", "method": "universal PBM", "molecule type": "double-stranded DNA, one strand shown", "medium": "in vitro", "concentration": "not given", "setting": "8-mer, flanks averaged, mean of replicates", "reading": "higher = stronger binding", "Target sequence (chain)": "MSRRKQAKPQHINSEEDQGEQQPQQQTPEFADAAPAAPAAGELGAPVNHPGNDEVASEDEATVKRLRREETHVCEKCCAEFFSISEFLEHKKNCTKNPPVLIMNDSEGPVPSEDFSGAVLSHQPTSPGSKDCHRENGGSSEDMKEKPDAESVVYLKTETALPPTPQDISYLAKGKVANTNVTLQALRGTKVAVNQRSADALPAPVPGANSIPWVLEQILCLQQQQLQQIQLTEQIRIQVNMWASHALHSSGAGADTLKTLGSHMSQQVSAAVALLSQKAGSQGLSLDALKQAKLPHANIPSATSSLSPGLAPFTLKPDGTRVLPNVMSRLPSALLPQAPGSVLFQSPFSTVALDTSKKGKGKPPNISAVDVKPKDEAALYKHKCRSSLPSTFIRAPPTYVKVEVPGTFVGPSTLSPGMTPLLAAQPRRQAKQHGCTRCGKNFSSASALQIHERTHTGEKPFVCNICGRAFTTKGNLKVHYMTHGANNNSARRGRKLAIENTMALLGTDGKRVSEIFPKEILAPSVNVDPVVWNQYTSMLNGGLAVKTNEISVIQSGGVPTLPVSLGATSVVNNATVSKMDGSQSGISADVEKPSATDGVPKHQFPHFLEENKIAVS"}
{"Sequence": "GGATTGCA", "E-score": 0.0263}
{"Sequence": "ATTTCGTC", "E-score": 0.231}
{"Sequence": "ATTGACTC", "E-score": 0.0333}
{"Sequence": "CCGGCAGG", "E-score": -0.28}
{"Sequence": "TTAAACAA", "E-score": 0.123}
{"Sequence": "CTTGAGCC", "E-score": -0.151}
{"Sequence": "CTCCCAAC", "E-score": -0.214}
{"Sequence": "AGTTTTGA", "E-score": 0.0721}
{"data": "Set 3", "target": "Replicase polyprotein 1ab, main protease (rep, Severe acute respiratory syndrome coronavirus 2, UniProt P0DTD1)", "observed": "enzyme activity", "mode": "inhibitor", "concentration": "20 µM", "setting": "hit confirmation"}
{"Compound": "O=C(NC1CCCCC1)N(CCCl)[N+][O-]", "inhibition": "52.5%"}
{"Compound": "NC(=S)N/N=C/c1coc2ccccc2c1=O", "inhibition": "51.8%"}
{"Compound": "O=C(O[C@@H]1Cc2c(O)cc(O)cc2O[C@@H]1c1ccc(O)c(O)c1)c1cc(O)c(O)c(O)c1", "inhibition": "3.9%"}
{"data": "Set 4", "target": "Histone acetyltransferase KAT6A, winged helix 1, GST fusion (KAT6A, Homo sapiens, UniProt Q92794, residues 1-85)", "method": "protein binding microarray", "molecule type": "double-stranded DNA, one strand shown", "medium": "in vitro", "concentration": "not given", "setting": "8-mer, flanks averaged, mean of 2 arrays, mostly near background", "relative to": "not given", "reading": "higher = stronger binding", "Construct (chain)": "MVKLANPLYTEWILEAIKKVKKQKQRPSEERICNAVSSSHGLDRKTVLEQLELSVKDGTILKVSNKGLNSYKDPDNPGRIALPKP"}
{"Sequence": "ATACACAA", "E-score": -0.205}
{"Sequence": "CGATACCC", "E-score": 0.179}
{"Sequence": "ATCTGCTC", "E-score": -0.179}
{"Sequence": "CGAAGTTA", "E-score": -0.152}
{"Sequence": "AAAATGTC", "E-score": -0.122}
{"Sequence": "ACCAGACC", "E-score": -0.0516}
{"Sequence": "GCGGTTGA", "E-score": 0.233}
{"Sequence": "AAGCCTCC", "E-score": -0.00447}
{"data": "Set 5", "target": "Replicase polyprotein 1ab, polymerase (rep, Severe acute respiratory syndrome coronavirus 2, UniProt P0DTD1)", "observed": "enzyme activity", "mode": "inhibitor", "concentration": "20 µM"}
{"Structure (SMILES)": "CC1(C)Oc2ccc(C#N)cc2[C@H](N(Cc2ncc[nH]2)c2ccc(Cl)cc2)[C@H]1O", "inhibition [%]": -1}
{"Structure (SMILES)": "NC(=O)NC(=O)Cc1ccccc1", "inhibition [%]": 23.4}
{"Structure (SMILES)": "Cc1nc2ccc(Oc3ccc(F)cc3)cc2c(=O)n1C[C@H]1CCCN(C(C)C)C1", "inhibition [%]": 1.91}
{"Structure (SMILES)": "O=C(O)c1ccc(NC2O[C@H](CO)[C@@H](O)[C@H](O)[C@@H]2O)cc1 (stereo in doubt)", "inhibition [%]": 1.41}
{"Structure (SMILES)": "CN1C[C@@H]2c3ccccc3Oc3ccc(Cl)cc3[C@H]2C1 (racemic)", "inhibition [%]": -5.23}
{"Structure (SMILES)": "CC#CCOC(=O)c1c(C)nc2sc3c(c2c1N)CCC(O)C3 (centres unmarked)", "inhibition [%]": -0.98}
{"Structure (SMILES)": "CC(C)(C)c1cc(C=C(C#N)C#N)cc(C(C)(C)C)c1O", "inhibition [%]": -1.23}
{"Structure (SMILES)": "COc1cc(-c2ncn(/C=C\\C(=O)OC(C)C)n2)cc(C(F)(F)F)c1", "inhibition [%]": 2.95}
{"Structure (SMILES)": "O=C(O)c1ccc(-c2ccc3cc(O)c(C45CC6CC(CC(C6)C4)C5)cc3c2)cc1", "inhibition [%]": 5.73}
{"Structure (SMILES)": "N[C@@H](C(=O)O)c1ccc(C(=O)O)c(O)c1 (racemic)", "inhibition [%]": 2.88}
{"Structure (SMILES)": "Nc1ncnc2c1ncn2[C@@H]1O[C@H](CO)[C@@H](O)[C@@H]1O", "inhibition [%]": 1.05}
{"Structure (SMILES)": "C/C=C1\\NC(=O)[C@H]2CSSCC/C=C/[C@H](CC(=O)N[C@H](C(C)C)C(=O)N2)OC(=O)[C@H](C(C)C)NC1=O", "inhibition [%]": 2.98}
{"Structure (SMILES)": "C[C@@H]1O[C@@H](O[C@H]2[C@H](Oc3cc(O)c4c(c3)O[C@H](c3ccc(O)cc3)CC4=O)O[C@H](CO)[C@@H](O)[C@@H]2O)[C@H](O)[C@H](O)[C@H]1O", "inhibition [%]": -2.91}
{"Structure (SMILES)": "C(#Cc1nc2ncccc2nc1OCCN1CCCC1)c1ccccc1", "inhibition [%]": 0.56}
{"Structure (SMILES)": "CN1C(=O)CC(c2ccccc2)C1=O (centres unmarked)", "inhibition [%]": -0.71}
{"Structure (SMILES)": "CC1(C)Oc2ccc(C#N)cc2[C@@H](N2CCCC2=O)[C@@H]1O", "inhibition [%]": 1.51}
{"Structure (SMILES)": "Nc1nc(NC[C@H]2CC[C@H](CNS(=O)(=O)c3cccc4ccccc34)CC2)nc2ccccc12", "inhibition [%]": 14.5}
{"Structure (SMILES)": "CN(C)C(=O)Oc1cc(OC(=O)N(C)C)cc(C(O)CNC(C)(C)C)c1 (centres unmarked)", "inhibition [%]": -3.91}
{"Structure (SMILES)": "N#CSc1cc(SC#N)c(N)nc1N", "inhibition [%]": 29.3}
{"Structure (SMILES)": "NC(=O)c1cn(Cc2c(F)cccc2F)nn1", "inhibition [%]": 1.33}
{"Structure (SMILES)": "CC(C)(CC(=O)N1CCCC1)NCC(=O)N1C[C@@H](F)C[C@H]1C#N", "inhibition [%]": 1.03}
{"Structure (SMILES)": "Cc1ccc(=O)n(-c2ccc(O)cc2)c1", "inhibition [%]": -7.08}
{"Structure (SMILES)": "CO[C@@H]1[C@H](N(C)C(=O)c2ccccc2)C[C@H]2O[C@]1(C)n1c3ccccc3c3c4c(c5c6ccccc6n2c5c31)C(=O)NC4", "inhibition [%]": 4.32}
{"Structure (SMILES)": "CC(C)=CCC/C(C)=C/CC/C(C)=C/CSc1ccccc1C(N)=O", "inhibition [%]": -4.57}
{"Structure (SMILES)": "OC[C@H]1O[C@@H](Oc2ccc(O)cc2)[C@H](O)[C@@H](O)[C@@H]1O", "inhibition [%]": -2.49}
{"data": "Mixed results"}
{"Compound": "COc1cc2nccc(Oc3ccc(NC(=O)C4(C(=O)Nc5ccc(F)cc5)CC4)cc3)c2cc1OC.O=C(O)C[C@H](O)C(=O)O", "cell line": "HEK-293T-ACE2", "concentration": "concentration not given", "relative to": "vehicle", "quantity": "cell number", "result": "76.8%"}
